Published values gathered from unrelated publications.
Each numbered part is a random draw from the data of one study; scales do not carry over between parts.

Sample 1
Target: Replicase polyprotein 1ab, main protease (rep, Severe acute respiratory syndrome coronavirus 2, UniProt P0DTD1)
Read-out: enzyme activity
Action: inhibitor
Concentration: 20 µM
Notes: hit confirmation, with DTT
For `CN(C)CCNc1nc2cc(O)ccc2c2c1C(=O)c1ccccc1-2`, the inhibition was 42.2%.
With `O=C(O)c1ccc(SSc2ccc(C(=O)O)cn2)nc1` the inhibition was 1.5%.
For `O=C(O)CCCCCCCCCCCCCCc1ccc(I)cc1`, the inhibition was 4%.

Sample 2
Target: Replicase polyprotein 1ab, nsp13 helicase (rep, Severe acute respiratory syndrome coronavirus 2, UniProt P0DTD1)
Action: inhibitor
Concentration: 20 µM
`O=C(Nc1ccccc1C(=O)Nc1ccc(CCO)cc1)c1ccc([N+](=O)[O-])cc1` has an inhibition of 12.7%.
The inhibition of `O=C(NCCCN1CCCCCC1)C(c1ccccc1)C1CCCCC1` (stereo not shown) is reported as -3.39%.
`CCCNC(C)C(=O)Nc1ccccc1C` (stereo not shown) has an inhibition of 8.29%.
The inhibition of `CS(=O)(=O)Nc1cc2occ(NC=O)c(=O)c2cc1Oc1ccccc1` is reported as 3.09%.
`CCc1nc(C(N)=O)c(Nc2ccc(N3CCC(N4CCN(C)CC4)CC3)c(OC)c2)nc1NC1CCOCC1` gave an inhibition of 1.19%.
The inhibition of `O=c1[nH]c(=O)n(C2CCCO2)cc1F` (stereo not shown) is reported as 5.96%.
`O=C(O)c1nn(Cc2ccc(Cl)cc2Cl)c2ccccc12` gave an inhibition of 12.9%.
The inhibition of `Nc1ccc(S(=O)(=O)Nc2ccnn2-c2ccccc2)cc1` is reported as -4.27%.
`O=C(O)c1cccnc1` gave an inhibition of 9.02%.
`c1cc2c(c(N3CCNCC3)c1)OCCO2` has an inhibition of 3.11%.
With `CC(C)(C)NCC(O)COc1cccc2[nH]c(C#N)cc12` (stereo not shown) the inhibition was 0.47%.
With `O=C(c1ccccn1)c1cnn2c(-c3ccncc3)ccnc12` the inhibition was 5.16%.
With `COc1ccc2cc(OCC3(C(=O)O)CN(C(=O)c4ccc(F)cc4)C3)ccc2c1` the inhibition was 5.73%.
`CO[C@H]1O[C@@H]2O[C@@]3(C)CC[C@H]4[C@H](C)CC[C@@H]([C@H]1C)[C@@]24OO3` has an inhibition of 5.55%.
The inhibition of `CN(C)c1cccc(Oc2cnc(Nc3cccc(O)c3)nc2)c1` is reported as 1.63%.
For `COc1ccc(Nc2ccn(-c3ccccc3)n2)cc1`, the inhibition was -3.51%.
With `CCC(C)(C)C(=O)C(=O)N1CCC[C@H]1C(=O)OCCCc1cccnc1` the inhibition was 2.69%.
With `C=CC[N+]1([C@H]2C[C@H]3[C@@H]4CC[C@H]5C[C@H](O)[C@@H](N6CCOCC6)C[C@]5(C)[C@H]4CC[C@]3(C)[C@H]2OC(C)=O)CCCC1` the inhibition was 3.46%.
For `NC(=O)c1ccc([N+](=O)[O-])cc1Cl`, the inhibition was 7.06%.
`Cc1csc(-c2nnc(Nc3ccc(Oc4ncccc4-c4ccnc(N)n4)cc3)c3ccccc23)c1` has an inhibition of 7.45%.
`CCCCCCCCCCCCCCCCCCN(CCCCCCCCCCCCCCCCCC)CCCN(CCO)CCO` gave an inhibition of 3.16%.
With `CC(=O)Nc1nc2c(Oc3cc(-c4ccc(C(F)(F)F)cc4)ncn3)cccc2s1` the inhibition was -0.11%.
With `Cc1c(C(=O)NN2CCCCC2)nn(-c2ccc(Cl)cc2Cl)c1-c1ccc(Cl)cc1` the inhibition was 5.87%.
`CCOc1cc2ncc(C#N)c(Nc3ccc(OCc4cccc(F)c4)c(Cl)c3)c2cc1NC(=O)/C=C/CN(C)C` has an inhibition of 8.47%.
For `CN1c2ccccc2C(=O)N2CCc3c([nH]c4ccccc34)C21` (stereo in doubt), the inhibition was 5.84%.

Sample 3
Target: Interferon regulatory factor 7, full length, phosphomimetic (IRF7, Homo sapiens, UniProt Q92985, residues 1-503, S101K/S471D/S472D/S475D/S476D/S477D/S483D/S484D/S487D)
Method: protein-binding microarray
Form: double-stranded DNA, one strand shown
Matrix: in vitro
Concentration: 250 nM
Notes: 60-bp whole probe
Together with: salmon DNA 0.4 mg/ml
Relative to: random background probes
Direction: higher = stronger binding
Shared flanks, not repeated: GCCTAGCAC … GTCTTGATTCGCTTGACGCTGCTG
Construct (chain): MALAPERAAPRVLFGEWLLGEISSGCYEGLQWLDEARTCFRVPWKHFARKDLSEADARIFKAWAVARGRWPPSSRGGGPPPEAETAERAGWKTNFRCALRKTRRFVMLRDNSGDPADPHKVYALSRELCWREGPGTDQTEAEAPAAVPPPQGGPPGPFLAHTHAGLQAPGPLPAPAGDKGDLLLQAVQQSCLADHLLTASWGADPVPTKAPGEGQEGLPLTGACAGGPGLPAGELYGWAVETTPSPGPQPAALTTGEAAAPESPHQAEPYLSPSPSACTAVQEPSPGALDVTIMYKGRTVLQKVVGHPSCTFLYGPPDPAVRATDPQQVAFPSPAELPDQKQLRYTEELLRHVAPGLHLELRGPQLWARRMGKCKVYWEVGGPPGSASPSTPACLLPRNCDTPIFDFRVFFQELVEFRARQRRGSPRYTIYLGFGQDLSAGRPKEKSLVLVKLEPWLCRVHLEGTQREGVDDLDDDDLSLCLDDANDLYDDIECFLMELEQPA
For `AATATTCTGCTTTGCAATAAGTGCTAG`, the log fluorescence was 0.711 z-score.
For `TTAGATATCGGGTATCGATTAGTGCTA`, the log fluorescence was 0.522 z-score.
The log fluorescence of `GTAGGTTTCGACACTGGGTTAGTGCTA` is reported as 2.69 z-score.
With `TTATGTATCCTTATCCTTTAGTGCTAG` the log fluorescence was 1.12 z-score.
With `TTAGGTGTCGACTATCGGTTAGTGCTA` the log fluorescence was -0.164 z-score.
The log fluorescence of `TCATTTCTACGTCTGATACTGTGCTAG` is reported as 1.08 z-score.
The log fluorescence of `GACGTTTTCAGTTCCGAGACGTGCTAG` is reported as 1.46 z-score.
For `TTAGGTTGCGGTATCGGTTAGTGCTAG`, the log fluorescence was 1.28 z-score.

Sample 4
Target: Histone acetyltransferase KAT6A, winged helix 1, GST fusion (KAT6A, Homo sapiens, UniProt Q92794, residues 1-85)
Method: protein binding microarray
Form: double-stranded DNA, one strand shown
Matrix: in vitro
Concentration: not given
Notes: 8-mer, flanks averaged, mean of 2 arrays, mostly near background
Relative to: not given
Direction: higher = stronger binding
Residues (chain): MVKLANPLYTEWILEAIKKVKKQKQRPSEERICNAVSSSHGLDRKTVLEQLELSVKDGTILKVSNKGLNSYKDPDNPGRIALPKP
`CGAAACTA` has an E-score of 0.0128.
The E-score of `ATTCCTCC` is reported as -0.0597.
`ACCTAGGC` has an E-score of -0.0716.
`AAAGTTCC` gave an E-score of -0.0877.
`ATCTATGA` gave an E-score of -0.151.
`TGCCACAA` has an E-score of -0.209.
With `GGTGTAAC` the E-score was 0.0856.
`CGTATAAA` has an E-score of 0.149.

Sample 5
Target: Sal-like protein 4, full length isoform A (SALL4, Homo sapiens, UniProt Q9UJQ4, residues 1-1053)
Sequence of UniProt Q9UJQ4 (whole entry, looked up): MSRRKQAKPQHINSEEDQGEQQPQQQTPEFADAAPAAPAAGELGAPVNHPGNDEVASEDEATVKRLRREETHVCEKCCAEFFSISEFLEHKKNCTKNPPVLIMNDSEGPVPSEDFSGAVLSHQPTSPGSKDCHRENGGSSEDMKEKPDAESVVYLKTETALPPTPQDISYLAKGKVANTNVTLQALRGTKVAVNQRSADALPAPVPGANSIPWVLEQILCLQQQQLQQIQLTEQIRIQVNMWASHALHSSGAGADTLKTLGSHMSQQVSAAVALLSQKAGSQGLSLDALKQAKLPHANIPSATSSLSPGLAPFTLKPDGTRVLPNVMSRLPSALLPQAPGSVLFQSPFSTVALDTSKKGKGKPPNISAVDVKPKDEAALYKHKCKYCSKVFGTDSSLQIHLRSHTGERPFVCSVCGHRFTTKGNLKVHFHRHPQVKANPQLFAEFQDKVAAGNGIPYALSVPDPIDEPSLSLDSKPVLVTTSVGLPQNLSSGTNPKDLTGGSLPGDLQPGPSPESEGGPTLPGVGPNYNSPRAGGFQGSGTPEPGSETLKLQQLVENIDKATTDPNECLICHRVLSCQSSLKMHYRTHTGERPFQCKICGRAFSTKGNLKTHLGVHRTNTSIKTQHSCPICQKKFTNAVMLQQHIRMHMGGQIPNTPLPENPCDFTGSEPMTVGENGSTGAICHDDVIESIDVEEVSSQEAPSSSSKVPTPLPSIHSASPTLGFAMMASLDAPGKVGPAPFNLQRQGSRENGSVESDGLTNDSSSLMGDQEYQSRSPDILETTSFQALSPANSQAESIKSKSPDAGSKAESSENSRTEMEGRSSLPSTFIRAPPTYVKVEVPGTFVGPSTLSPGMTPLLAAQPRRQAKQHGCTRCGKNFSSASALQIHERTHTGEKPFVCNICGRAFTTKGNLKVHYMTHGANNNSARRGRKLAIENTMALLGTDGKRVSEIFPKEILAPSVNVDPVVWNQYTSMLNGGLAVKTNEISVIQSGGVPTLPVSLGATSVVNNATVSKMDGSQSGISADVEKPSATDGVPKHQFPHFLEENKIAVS
Method: universal PBM
Form: double-stranded DNA, one strand shown
Matrix: in vitro
Concentration: 600 nM
Notes: 8-mer, flanks averaged, mean of replicates
Direction: higher = stronger binding
With `CTCCCTAC` the E-score was -0.0505.
`ACCCGCTC` gave an E-score of -0.335.
`CCGCTTTC` gave an E-score of -0.184.
For `GGCAGTCA`, the E-score was -0.0287.
With `GCATGAGA` the E-score was 0.00686.
The E-score of `AGTCAAAG` is reported as 0.0265.
For `TAGGTCAA`, the E-score was 0.149.
`GCCGAAGC` has an E-score of -0.27.

Some of these lines once more (sample 2):
For `COc1ccc(Nc2ccn(-c3ccccc3)n2)cc1`, the inhibition was -3.51%.
With `COc1ccc2cc(OCC3(C(=O)O)CN(C(=O)c4ccc(F)cc4)C3)ccc2c1` the inhibition was 5.73%.
With `C=CC[N+]1([C@H]2C[C@H]3[C@@H]4CC[C@H]5C[C@H](O)[C@@H](N6CCOCC6)C[C@]5(C)[C@H]4CC[C@]3(C)[C@H]2OC(C)=O)CCCC1` the inhibition was 3.46%.
`CCc1nc(C(N)=O)c(Nc2ccc(N3CCC(N4CCN(C)CC4)CC3)c(OC)c2)nc1NC1CCOCC1` gave an inhibition of 1.19%.
`CCOc1cc2ncc(C#N)c(Nc3ccc(OCc4cccc(F)c4)c(Cl)c3)c2cc1NC(=O)/C=C/CN(C)C` has an inhibition of 8.47%.
`O=C(O)c1cccnc1` gave an inhibition of 9.02%.
